{"data": "Results from different studies", "note": "Each numbered part is a random draw from the data of one study; scales do not carry over between parts.", "UniProt Q15831, sequence (whole entry, looked up)": "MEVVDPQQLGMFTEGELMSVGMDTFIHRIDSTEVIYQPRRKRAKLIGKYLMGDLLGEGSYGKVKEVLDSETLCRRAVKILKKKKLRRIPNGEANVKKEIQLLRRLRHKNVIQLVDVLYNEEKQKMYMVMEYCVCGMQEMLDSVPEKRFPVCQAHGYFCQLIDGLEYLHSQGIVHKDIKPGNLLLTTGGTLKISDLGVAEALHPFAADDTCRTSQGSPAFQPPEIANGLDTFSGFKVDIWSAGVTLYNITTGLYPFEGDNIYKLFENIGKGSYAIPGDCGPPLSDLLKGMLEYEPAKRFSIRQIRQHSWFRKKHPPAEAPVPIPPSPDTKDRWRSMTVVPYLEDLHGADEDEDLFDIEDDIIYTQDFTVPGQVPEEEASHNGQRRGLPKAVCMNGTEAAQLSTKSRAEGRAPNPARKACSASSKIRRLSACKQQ", "UniProt P37173, sequence (whole entry, looked up)": "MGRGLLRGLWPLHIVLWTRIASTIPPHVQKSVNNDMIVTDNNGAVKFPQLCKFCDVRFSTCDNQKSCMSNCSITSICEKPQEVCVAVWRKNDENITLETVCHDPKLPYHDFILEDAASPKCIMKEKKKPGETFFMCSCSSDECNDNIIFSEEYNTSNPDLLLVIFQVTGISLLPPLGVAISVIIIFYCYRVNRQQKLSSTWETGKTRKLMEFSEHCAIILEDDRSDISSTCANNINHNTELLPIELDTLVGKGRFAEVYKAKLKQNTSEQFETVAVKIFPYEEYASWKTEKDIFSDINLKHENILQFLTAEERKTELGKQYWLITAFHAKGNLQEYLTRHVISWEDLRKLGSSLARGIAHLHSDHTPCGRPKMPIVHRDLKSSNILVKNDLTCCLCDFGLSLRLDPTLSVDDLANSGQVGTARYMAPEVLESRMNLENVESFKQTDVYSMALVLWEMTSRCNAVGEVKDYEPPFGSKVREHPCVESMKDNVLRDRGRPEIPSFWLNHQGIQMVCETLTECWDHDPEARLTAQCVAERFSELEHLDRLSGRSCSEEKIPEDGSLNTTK", "UniProt Q99759, sequence (whole entry, looked up)": "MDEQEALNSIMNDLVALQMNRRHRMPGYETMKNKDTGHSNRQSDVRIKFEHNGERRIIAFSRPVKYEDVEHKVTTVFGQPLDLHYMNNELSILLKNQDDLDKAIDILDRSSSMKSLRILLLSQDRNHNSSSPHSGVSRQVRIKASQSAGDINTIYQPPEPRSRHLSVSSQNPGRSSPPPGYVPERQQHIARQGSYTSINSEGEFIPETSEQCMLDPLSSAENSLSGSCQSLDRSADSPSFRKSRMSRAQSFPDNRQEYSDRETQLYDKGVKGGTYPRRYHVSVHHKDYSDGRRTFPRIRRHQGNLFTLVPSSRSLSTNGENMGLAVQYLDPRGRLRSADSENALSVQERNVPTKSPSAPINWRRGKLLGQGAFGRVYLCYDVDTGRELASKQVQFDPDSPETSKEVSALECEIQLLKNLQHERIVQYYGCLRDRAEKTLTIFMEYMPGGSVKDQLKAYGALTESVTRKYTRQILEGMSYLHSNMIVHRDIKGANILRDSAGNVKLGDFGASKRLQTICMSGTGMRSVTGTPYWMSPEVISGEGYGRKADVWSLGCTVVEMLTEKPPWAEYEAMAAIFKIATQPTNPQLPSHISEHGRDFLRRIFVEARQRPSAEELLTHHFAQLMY", "UniProt O96017, sequence (whole entry, looked up)": "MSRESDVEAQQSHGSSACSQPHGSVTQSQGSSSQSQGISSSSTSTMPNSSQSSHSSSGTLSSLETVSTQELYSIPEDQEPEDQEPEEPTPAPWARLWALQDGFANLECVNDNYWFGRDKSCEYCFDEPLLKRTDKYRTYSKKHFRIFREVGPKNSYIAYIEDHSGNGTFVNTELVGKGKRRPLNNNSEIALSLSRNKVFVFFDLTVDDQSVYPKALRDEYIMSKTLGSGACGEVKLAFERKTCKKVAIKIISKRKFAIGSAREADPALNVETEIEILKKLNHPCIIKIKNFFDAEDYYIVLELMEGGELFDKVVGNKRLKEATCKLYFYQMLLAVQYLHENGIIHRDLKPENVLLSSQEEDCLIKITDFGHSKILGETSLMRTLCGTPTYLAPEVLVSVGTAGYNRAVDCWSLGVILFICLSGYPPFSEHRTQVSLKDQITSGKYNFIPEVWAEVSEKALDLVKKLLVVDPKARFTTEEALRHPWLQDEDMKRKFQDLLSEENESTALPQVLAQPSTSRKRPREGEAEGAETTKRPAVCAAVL", "UniProt Q14164, sequence (whole entry, looked up)": "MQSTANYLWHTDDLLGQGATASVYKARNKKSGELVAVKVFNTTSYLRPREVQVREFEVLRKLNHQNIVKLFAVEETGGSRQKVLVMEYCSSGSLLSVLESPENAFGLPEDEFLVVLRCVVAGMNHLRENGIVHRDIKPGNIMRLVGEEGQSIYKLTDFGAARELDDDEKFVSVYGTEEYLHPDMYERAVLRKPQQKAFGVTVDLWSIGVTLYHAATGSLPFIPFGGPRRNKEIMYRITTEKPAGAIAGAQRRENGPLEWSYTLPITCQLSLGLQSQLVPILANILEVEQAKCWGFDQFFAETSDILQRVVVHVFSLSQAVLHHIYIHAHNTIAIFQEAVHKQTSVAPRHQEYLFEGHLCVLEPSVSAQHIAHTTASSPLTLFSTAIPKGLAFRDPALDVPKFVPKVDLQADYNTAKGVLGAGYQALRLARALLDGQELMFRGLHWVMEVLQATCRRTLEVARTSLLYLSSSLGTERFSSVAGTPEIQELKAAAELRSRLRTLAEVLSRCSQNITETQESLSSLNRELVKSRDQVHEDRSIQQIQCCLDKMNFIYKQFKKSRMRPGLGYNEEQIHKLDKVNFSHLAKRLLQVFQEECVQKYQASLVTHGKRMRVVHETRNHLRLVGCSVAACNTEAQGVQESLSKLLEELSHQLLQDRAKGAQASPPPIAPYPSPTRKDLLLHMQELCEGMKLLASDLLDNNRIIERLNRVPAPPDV", "UniProt P07948, sequence (whole entry, looked up)": "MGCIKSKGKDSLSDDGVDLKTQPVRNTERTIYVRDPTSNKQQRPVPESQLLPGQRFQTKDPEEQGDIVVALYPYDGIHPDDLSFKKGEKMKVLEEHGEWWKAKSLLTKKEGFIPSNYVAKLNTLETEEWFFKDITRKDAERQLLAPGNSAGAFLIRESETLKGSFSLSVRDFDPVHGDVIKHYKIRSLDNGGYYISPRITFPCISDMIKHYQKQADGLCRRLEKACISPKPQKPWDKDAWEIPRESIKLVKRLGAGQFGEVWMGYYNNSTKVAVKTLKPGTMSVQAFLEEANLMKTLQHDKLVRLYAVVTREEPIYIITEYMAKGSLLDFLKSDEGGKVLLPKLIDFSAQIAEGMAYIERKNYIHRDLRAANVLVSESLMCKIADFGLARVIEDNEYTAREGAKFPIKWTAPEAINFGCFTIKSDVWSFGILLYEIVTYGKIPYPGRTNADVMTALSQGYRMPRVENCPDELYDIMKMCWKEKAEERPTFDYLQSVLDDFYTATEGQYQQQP", "UniProt Q13976, sequence (whole entry, looked up)": "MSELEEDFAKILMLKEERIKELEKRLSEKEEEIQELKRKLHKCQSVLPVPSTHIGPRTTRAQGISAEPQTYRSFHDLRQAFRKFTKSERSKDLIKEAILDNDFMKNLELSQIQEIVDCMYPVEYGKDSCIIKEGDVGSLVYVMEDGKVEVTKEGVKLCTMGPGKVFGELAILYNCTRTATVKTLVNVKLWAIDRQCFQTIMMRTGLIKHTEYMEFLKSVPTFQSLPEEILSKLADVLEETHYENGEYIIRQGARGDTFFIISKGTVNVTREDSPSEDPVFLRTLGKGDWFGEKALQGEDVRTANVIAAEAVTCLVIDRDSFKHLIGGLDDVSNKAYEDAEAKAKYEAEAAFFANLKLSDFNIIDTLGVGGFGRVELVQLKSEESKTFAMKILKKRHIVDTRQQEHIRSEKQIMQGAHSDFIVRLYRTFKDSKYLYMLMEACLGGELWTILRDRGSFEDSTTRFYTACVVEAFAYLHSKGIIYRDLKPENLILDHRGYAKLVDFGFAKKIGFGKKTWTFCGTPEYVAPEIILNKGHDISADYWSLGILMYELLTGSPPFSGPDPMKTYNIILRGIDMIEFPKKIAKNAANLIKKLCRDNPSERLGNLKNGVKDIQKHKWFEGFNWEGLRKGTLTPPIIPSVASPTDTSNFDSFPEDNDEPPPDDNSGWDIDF", "UniProt O95747, sequence (whole entry, looked up)": "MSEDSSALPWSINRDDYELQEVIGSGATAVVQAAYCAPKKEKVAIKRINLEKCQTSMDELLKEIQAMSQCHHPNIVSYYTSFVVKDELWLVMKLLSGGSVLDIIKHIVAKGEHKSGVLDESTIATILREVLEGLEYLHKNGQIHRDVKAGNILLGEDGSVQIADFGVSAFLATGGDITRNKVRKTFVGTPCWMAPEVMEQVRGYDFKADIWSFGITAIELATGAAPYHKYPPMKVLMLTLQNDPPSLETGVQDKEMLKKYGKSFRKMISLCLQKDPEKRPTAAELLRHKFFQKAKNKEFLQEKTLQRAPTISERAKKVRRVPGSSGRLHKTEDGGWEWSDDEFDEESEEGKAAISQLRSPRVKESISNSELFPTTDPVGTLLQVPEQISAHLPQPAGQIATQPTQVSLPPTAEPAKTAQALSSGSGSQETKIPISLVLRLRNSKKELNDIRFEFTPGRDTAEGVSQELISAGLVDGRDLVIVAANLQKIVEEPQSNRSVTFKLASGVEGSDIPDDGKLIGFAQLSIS", "UniProt Q8IU85, sequence (whole entry, looked up)": "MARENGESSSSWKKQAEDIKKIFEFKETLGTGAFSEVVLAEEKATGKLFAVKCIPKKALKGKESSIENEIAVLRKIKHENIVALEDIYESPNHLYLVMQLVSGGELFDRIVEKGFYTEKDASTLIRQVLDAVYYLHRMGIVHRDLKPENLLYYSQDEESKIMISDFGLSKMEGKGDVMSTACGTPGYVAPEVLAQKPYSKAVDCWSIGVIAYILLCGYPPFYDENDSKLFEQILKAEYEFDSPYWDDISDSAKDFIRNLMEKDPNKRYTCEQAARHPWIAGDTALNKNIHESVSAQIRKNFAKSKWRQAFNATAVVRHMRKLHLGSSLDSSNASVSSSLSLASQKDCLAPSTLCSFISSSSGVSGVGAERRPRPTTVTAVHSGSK"}
{"data": "Set 1", "SMILES": "C[C@H](NC(=O)c1cnc2n1[C@](C)(Cc1ccc(C#N)cc1)C(=O)N2c1cc(Cl)c(F)c(Cl)c1)C(=O)NC1(c2ccccn2)CC1", "observed": "cell-free assay", "method": "competition with immobilised ligand", "concentration": "1 µM"}
{"target": "Leucine-rich repeat serine/threonine-protein kinase 2 (LRRK2, Homo sapiens, UniProt Q5S007)", "remaining binding [%]": 100}
{"target": "Calcium/calmodulin-dependent protein kinase type 1D (CAMK1D, Homo sapiens, UniProt Q8IU85)", "remaining binding [%]": 99}
{"target": "Cyclin-dependent kinase-like 2 (CDKL2, Homo sapiens, UniProt Q92772)", "remaining binding [%]": 100}
{"target": "Mitogen-activated protein kinase kinase kinase 20 (MAP3K20, Homo sapiens, UniProt Q9NYL2)", "remaining binding [%]": 100}
{"target": "Phosphatidylinositol 4,5-bisphosphate 3-kinase catalytic subunit alpha isoform (PIK3CA, Homo sapiens, UniProt P42336, M1043I)", "remaining binding [%]": 100}
{"target": "Atypical kinase COQ8A, mitochondrial (COQ8A, Homo sapiens, UniProt Q8NI60)", "remaining binding [%]": 100}
{"target": "Calcium/calmodulin-dependent protein kinase type II subunit gamma (CAMK2G, Homo sapiens, UniProt Q13555)", "remaining binding [%]": 100}
{"target": "Tyrosine-protein kinase ZAP-70 (ZAP70, Homo sapiens, UniProt P43403)", "remaining binding [%]": 100}
{"target": "Mast/stem cell growth factor receptor Kit (KIT, Homo sapiens, UniProt P10721, V559D)", "remaining binding [%]": 91}
{"target": "Calcium/calmodulin-dependent protein kinase type 1G (CAMK1G, Homo sapiens, UniProt Q96NX5)", "remaining binding [%]": 100}
{"target": "Rhodopsin kinase GRK1 (GRK1, Homo sapiens, UniProt Q15835)", "remaining binding [%]": 100}
{"target": "Serine/threonine-protein kinase ULK2 (ULK2, Homo sapiens, UniProt Q8IYT8)", "remaining binding [%]": 100}
{"data": "Set 2", "Structure (SMILES)": "NC(=O)c1ccc(-c2nc(-c3ccc4c(c3)OCCO4)c(-c3ccccn3)[nH]2)cc1", "observed": "enzyme activity", "mode": "inhibitor", "concentration": "0.5 µM", "baseline": "control"}
{"target": "Calcium/calmodulin-dependent protein kinase type II subunit delta (CAMK2D, Homo sapiens, UniProt Q13557)", "remaining activity [%]": 95.2}
{"target": "Cyclin-dependent kinase 4, with cyclin D1 (CDK4, Homo sapiens, UniProt P11802)", "remaining activity [%]": 84}
{"target": "Serine/threonine-protein kinase Chk2 (CHEK2, Homo sapiens, UniProt O96017)", "remaining activity [%]": 95}
{"target": "Inhibitor of nuclear factor kappa-B kinase subunit beta (IKBKB, Homo sapiens, UniProt O14920)", "remaining activity [%]": 102}
{"target": "TGF-beta receptor type-2 (TGFBR2, Homo sapiens, UniProt P37173)", "remaining activity [%]": 89.3}
{"target": "G protein-coupled receptor kinase 3 (GRK3, Homo sapiens, UniProt P35626)", "remaining activity [%]": 96.5}
{"target": "Mitogen-activated protein kinase kinase kinase 3 (MAP3K3, Homo sapiens, UniProt Q99759)", "remaining activity [%]": 115}
{"target": "Tyrosine-protein kinase Lyn, isoform B (LYN, Homo sapiens, UniProt P07948)", "remaining activity [%]": 102}
{"target": "Inhibitor of nuclear factor kappa-B kinase subunit epsilon (IKBKE, Homo sapiens, UniProt Q14164)", "remaining activity [%]": 99.7}
{"target": "Calcium/calmodulin-dependent protein kinase kinase 2 (CAMKK2, Homo sapiens, UniProt Q96RR4)", "remaining activity [%]": 103}
{"target": "Mitogen-activated protein kinase 9 (MAPK9, Homo sapiens, UniProt P45984)", "remaining activity [%]": 102}
{"target": "cGMP-dependent protein kinase 1, isoform beta (PRKG1, Homo sapiens, UniProt Q13976)", "remaining activity [%]": 94.7}
{"target": "STE20/SPS1-related proline-alanine-rich protein kinase (STK39, Homo sapiens, UniProt Q9UEW8)", "remaining activity [%]": 107}
{"target": "cAMP-dependent protein kinase catalytic subunit alpha (PRKACA, Homo sapiens, UniProt P17612)", "remaining activity [%]": 102}
{"target": "Cyclin-dependent kinase 5, with p25 (CDK5, Homo sapiens, UniProt Q00535)", "remaining activity [%]": 91}
{"target": "Protein kinase C alpha type (PRKCA, Homo sapiens, UniProt P17252)", "remaining activity [%]": 83.1}
{"target": "Serine/threonine-protein kinase STK11 (STK11, Homo sapiens, UniProt Q15831)", "remaining activity [%]": 90.9}
{"target": "Death-associated protein kinase 1 (DAPK1, Homo sapiens, UniProt P53355)", "remaining activity [%]": 97.6}
{"target": "Serine/threonine-protein kinase Nek2 (NEK2, Homo sapiens, UniProt P51955)", "remaining activity [%]": 105}
{"target": "Serine/threonine-protein kinase OSR1 (OXSR1, Homo sapiens, UniProt O95747)", "remaining activity [%]": 92.7}
{"target": "Serine/threonine-protein kinase 10 (STK10, Homo sapiens, UniProt O94804)", "remaining activity [%]": 93}
{"data": "Set 3", "target": "Interferon regulatory factor 1, DNA-binding domain (IRF1, Homo sapiens, UniProt P10914, residues 1-114)", "method": "protein-binding microarray", "form": "hairpin DNA", "sample": "in vitro", "concentration": "not given", "notes": "whole hairpin DNA, median over replicate spots", "baseline": "not given", "direction": "higher = stronger binding", "Construct (chain)": "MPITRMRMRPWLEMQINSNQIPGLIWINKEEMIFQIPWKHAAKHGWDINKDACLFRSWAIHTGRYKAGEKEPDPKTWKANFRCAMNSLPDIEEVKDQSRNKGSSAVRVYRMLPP"}
{"Strand": "GAGGCCAGAAAGTGAAACGCCTCCTGGCGTTTCACTTTCTGGCCTCACAC", "median fluorescence": "1710 a.u."}
{"Strand": "GAGGCCCGAAAGCGAAACGCCTCCTGGCGTTTCGCTTTCGGGCCTCACAC (5mC at 13 39)", "median fluorescence": "856 a.u."}
{"Strand": "GAGGCCCGAAAGTGAAACGCCTCCTGGCGTTTCACTTTCGGGCCTCACAC (5mC at 33)", "median fluorescence": "1400 a.u."}
{"Strand": "GAGGCCCGAAATCGAAACGCCTCCTGGCGTTTCGATTTCGGGCCTCACAC", "median fluorescence": "2280 a.u."}
{"Strand": "GAGGCCCGAAAGCGGAACGCCTCCTGGCGTTCCGCTTTCGGGCCTCACAC (5mC at 32)", "median fluorescence": "530 a.u."}
{"Strand": "GAGGCCCGAAAGTCGAACGCCTCCTGGCGTTCGACTTTCGGGCCTCACAC (5mC at 14)", "median fluorescence": "570 a.u."}
{"Strand": "GAGGCCCGCGAGTGAAACGCCTCCTGGCGTTTCACTCGCGGGCCTCACAC (5mC at 37)", "median fluorescence": "530 a.u."}
{"Strand": "GAGGCCCGAAAGTGAAACGCCTCCTGGCGTTTCACTTTCGGGCCTCACAC (5mC at 7)", "median fluorescence": "1800 a.u."}
{"data": "Set 4", "target": "PABPC1L2, full length, GST fusion (mouse, UniProt A0ABA7IW68)", "method": "RNAcompete", "form": "RNA", "sample": "in vitro", "concentration": "20 nM", "notes": "7-mer, probes averaged, single round", "baseline": "mean of 7-mers", "direction": "higher = stronger binding", "Residues (chain)": "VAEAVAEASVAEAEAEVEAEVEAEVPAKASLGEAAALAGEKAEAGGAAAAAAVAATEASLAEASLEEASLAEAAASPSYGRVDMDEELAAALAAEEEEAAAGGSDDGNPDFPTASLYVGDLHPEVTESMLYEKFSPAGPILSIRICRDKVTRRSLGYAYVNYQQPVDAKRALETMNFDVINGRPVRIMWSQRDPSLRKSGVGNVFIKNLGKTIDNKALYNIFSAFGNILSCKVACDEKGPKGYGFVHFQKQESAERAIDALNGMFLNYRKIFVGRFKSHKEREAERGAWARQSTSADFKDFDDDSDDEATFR"}
{"Strand": "CGGCAUA", "7-mer Z-score": -0.115}
{"Strand": "UAGGAAG", "7-mer Z-score": -0.0409}
{"Strand": "CUAGCUG", "7-mer Z-score": -0.171}
{"Strand": "CGGCCGC", "7-mer Z-score": -0.351}
{"Strand": "CAACGCG", "7-mer Z-score": -0.0047}
{"Strand": "GCAACCG", "7-mer Z-score": -0.115}
{"Strand": "AUGAAGC", "7-mer Z-score": 0.00798}
{"Strand": "UCUUAGC", "7-mer Z-score": -0.373}
{"note": "Some of these lines once more (set 3):"}
{"Strand": "GAGGCCCGAAAGCGGAACGCCTCCTGGCGTTCCGCTTTCGGGCCTCACAC (5mC at 32)", "median fluorescence": "530 a.u."}
{"Strand": "GAGGCCCGAAAGTCGAACGCCTCCTGGCGTTCGACTTTCGGGCCTCACAC (5mC at 14)", "median fluorescence": "570 a.u."}
{"Strand": "GAGGCCCGCGAGTGAAACGCCTCCTGGCGTTTCACTCGCGGGCCTCACAC (5mC at 37)", "median fluorescence": "530 a.u."}
